Experimental data from different studies.
Every numbered part comes from another study and shows a few of its results, in no order. Substitutions count along the parent as printed.

Series 1
Target: CCNE2, cyclin fold, Cln2 fusion (human)
Method: yeast growth competition, sequencing
Sample: yeast
Notes: weak parent motif
Relative to: not given
Reading: higher = stronger binding
Starting sequence: CDAN1 docking peptide (human); RGARSQLFPPTEA; partner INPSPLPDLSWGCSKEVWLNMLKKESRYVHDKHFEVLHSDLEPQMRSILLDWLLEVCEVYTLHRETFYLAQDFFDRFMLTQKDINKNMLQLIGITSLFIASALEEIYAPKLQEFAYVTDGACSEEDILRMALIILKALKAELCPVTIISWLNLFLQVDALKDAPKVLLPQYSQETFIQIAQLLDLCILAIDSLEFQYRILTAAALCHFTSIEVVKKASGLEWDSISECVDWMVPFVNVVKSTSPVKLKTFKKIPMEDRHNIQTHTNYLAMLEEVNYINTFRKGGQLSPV
Change | normalised enrichment score
RGARSALFPPTEA [Q6A] | 0.532
RGARSQLFPPTAA [E12A] | 0.269
RGAASQLFPPTEA [R4A] | 0.0491
AGARSQLFPPTEA [R1A] | 0.213
RGARSQAFPPTEA [L7A] | 0.126

Series 2
Target: RING finger protein unkempt homolog, zinc fingers 1-6, GST-SBP tag (UNK, Homo sapiens, UniProt Q9C0B0, residues 30-357)
Chain of UniProt Q9C0B0 (30-357, looked up): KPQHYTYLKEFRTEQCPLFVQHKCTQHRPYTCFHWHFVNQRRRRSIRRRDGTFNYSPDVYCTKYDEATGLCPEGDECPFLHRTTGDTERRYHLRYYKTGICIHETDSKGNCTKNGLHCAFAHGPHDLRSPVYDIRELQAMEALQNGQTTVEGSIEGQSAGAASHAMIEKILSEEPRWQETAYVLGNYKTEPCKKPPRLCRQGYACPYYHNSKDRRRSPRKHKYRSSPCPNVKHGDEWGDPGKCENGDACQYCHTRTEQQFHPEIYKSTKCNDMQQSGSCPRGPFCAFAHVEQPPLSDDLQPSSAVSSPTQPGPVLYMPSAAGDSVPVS
Method: RNA Bind-n-Seq
Form: RNA
Sample: in vitro
Tested at: not given
Notes: RNA with constant flanks, human-mouse chimeric sites, ends assumed
Relative to: input RNA pool
Reading: higher = stronger binding
All sequences stand within: GGGAGUUCUACAGUCCGACGAUC … CAACAGAGGAUUGAGCAUCA
Sequence | bound/input enrichment [ratio]
GUUCGGCUCUGGGAUCAUGCCACAAUGACAGAAGUGAAAUCUCUGAAUUUUAAUAUGUCUGUUAGCAGUAUGGAAUAUAUUCCUGAGGGAGAGAUUUUGGUUAUUACUUAUGGACGAUCU | 0.743
GGCCUGGACCUUCCUGGGGCUAGUACAAAUAGCGGCAUGGAGGCUCAGAGAGGAAAGUUUGUUAGUGGAGGCAGUGGUAGAGGCCGUCAUGUACGGUCCUUUACUCGAUAGAUGUGUUCU | 0.221
UCUUUGUGUAACUUAUCUGUAAAAGGUGUUUCUCCCUUACUGUCAAAAAAUAUGCAUGUAUAGUAAUUAGGACUUCAUUCCUCCAUGUUUUCUUCCCUUAUCUUACUGUCAUUGUCCUUA | 0.735
GGCCUGGGACCGUCCUGGGCUAGUACAAAUAGCGGCAUGGAGGCUCAGAGAGGAAAGUUUGUUAGUGGAGGCAGUGGUAGAGGCCGUCAUGUACGGUCUUUACACGAAUAGAUGUGUUCU | 0.758
AAUAGAGGAUCCACCUCCCAAAGUGCUGGGAGUAAAGGUGUGGCCACCACACCUAACUUGAUGGAUAUAUAUUUUUUUUAAUAUGAAUCUUCCUGUUCGUCCAGGGAAGAAAGAUUUGUU | 2.95
UUACCCGAGAACGAGGAUGAGCUGGAGAGCACCAACAGGCGCUACACCAAGAGGGACUGCAGCACUUUCCUCAGAACUAGCGAGACGGGCAUUGUGGACCAGGUCAUGGUCACUCUCAAC | 0.118
AUGGUUGUGUCUCUUGAGAUCUAAAAACAAGAUGACUUUUCCUGGCACAUAUUCCAAAGCAAAGACUUUGUUGCCUGCUGCUUCUUGUCUAAUUUACAGGGAUAUUUAAUUUUGUCAGGU | 0.281
CUGAAAAACACAGAUAUCAAAGUUGUUGACUUUGGAAGUGCAACGUAUGAUGAUGAACAUCACAGUACUUUGGUGUCUACCCGGCACUACAGGGCUCCCGAGGUCAUUUUGGCUCUAGGU | 0.271
AGUGUGCAGGAAUUCAUGACCUUUACAAGUCAACUGAUUGUGGAGCGCUCGGGGAAAGGCAGCAGAGCUUCUGUCAAAGAACAAGAGUAUCUUUGCCAUGUCUACGUCCGGAGCGACAGU | 0.134
CUGUGUGUGCUGAAUAAAUGGCUUGUAAAGAAGUUUUUCCAAGCUGUAACCCAUGCUGUUAUUAUAGUUGCUGCAAAAUGUUCUUCCUGAUAUUGAUGUUUGUUUACAACUGAAGGUCUC | 0.206
CUGAGGAUACCACUGAAGAGACCUUAAAAGAAUCAUUUGAGGGCUCUCGUUCGGGCAGAAUAGUCACUGAUCGGGAAACUGGUUCUUCCAAAGGGUUUUGGUUUUGUGACUUUAAUAGUG | 0.456

Series 3
Target: Ras GTPase-activating protein-binding protein 1, full length (G3BP1, Homo sapiens, UniProt Q13283)
Chain of UniProt Q13283 (whole entry, looked up): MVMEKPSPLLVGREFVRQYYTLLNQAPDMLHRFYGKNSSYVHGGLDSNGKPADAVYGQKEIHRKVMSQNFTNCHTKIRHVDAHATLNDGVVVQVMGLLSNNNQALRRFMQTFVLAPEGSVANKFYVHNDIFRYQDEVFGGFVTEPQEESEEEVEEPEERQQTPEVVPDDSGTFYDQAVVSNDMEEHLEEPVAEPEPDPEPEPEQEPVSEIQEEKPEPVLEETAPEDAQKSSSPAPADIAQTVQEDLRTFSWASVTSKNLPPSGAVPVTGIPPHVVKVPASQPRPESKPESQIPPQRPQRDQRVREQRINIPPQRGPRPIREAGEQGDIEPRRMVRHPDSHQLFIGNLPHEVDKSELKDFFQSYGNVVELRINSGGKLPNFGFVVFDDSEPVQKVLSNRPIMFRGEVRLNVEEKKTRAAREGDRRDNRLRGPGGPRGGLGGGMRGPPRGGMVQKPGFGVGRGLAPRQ
Method: RNA Bind-n-Seq
Form: RNA
Sample: in vitro
Tested at: 200 nM
Notes: whole 134-nt RNA, ends assumed
Together with: 150 mM KCl
Relative to: input library
Reading: higher = stronger binding
All sequences stand within: GGGAGUUCUACAGUCCGACGAUC … UGGAAUUCUCGGGUGUCAAGG
Sequence | log2 enrichment
AGUCCUGUGCUACACAUCGUAUGUACCGAAUCGGGGCCCCGGCCCCGGGGCCCCGGGAAAGUAUUAUGUUACGCCGUUCGGAUCUGCACU | -1.46
UCCUGUGCUACACAUCGUAUGUACCGAAUCAAAUUUUUUUAAAUUUUUUUAAACCCAAAAAAGUAUUAUGUUACGCCGUUCGGAUCUGCA | -0.0202
UGGAGAAGGAACGUGAUAAAGAAGUAAGCGAUGAUGAGGCUGAAGAAAAGGAAGACAAAGAAGAAGAAAAAGAAAAAGAAGAGAAAGAGU | 0.0656
CCUGUGCUACACAUCGUAUGUACCGAAUCGGAAAAAAAGGGAAAAAAAGGAAAAAAAGGGGAAAGUAUUAUGUUACGCCGUUCGGAUCUG | -1.02
CCUGUGCUACACAUCGUAUGUACCGAAUCGGGGAAAAAAAGGGGAGGGGAAAAAAAGGGGAAAGUAUUAUGUUACGCCGUUCGGAUCUGC | 0.0329
GUCCUGUGCUACACAUCGUAUGUACCGAAUCGGGAAAAAGGGAAAAAGGGAAAAAGGGAAAGUAUUAUGUUACGCCGUUCGGAUCUGCAC | -0.586
UCCUCAAGUCCUGUGCUACACAUCGUAUGUACCGAAUCGGUUUGGAGGUGGAAAGUAUUAUGUUACGCCGUUCGGAUCUGCACUUCCAGC | -0.88
GUCCUGUGCUACACAUCGUAUGUACCGAAUCGGGUUUUUGGGUUUUUGGUUUUUGGGGAAAGUAUUAUGUUACGCCGUUCGGAUCUGCAC | -0.666
CUCAAGUCCUGUGCUACACAUCGUAUGUACCGAAUCGGGUUUGGGAGGGAGGGAAAGUAUUAUGUUACGCCGUUCGGAUCUGCACUUCCA | 1.44
AGUCCUGUGCUACACAUCGUAUGUACCGAAUCGGGGUUUUGGGUUUUGGUUUUGGGGAAAGUAUUAUGUUACGCCGUUCGGAUCUGCACU | -0.474
AAGUCCUGUGCUACACAUCGUAUGUACCGAAUCGGGAAAAAGGGAAAGGGUUUGGGAAAGUAUUAUGUUACGCCGUUCGGAUCUGCACUU | 0.0811
CGCAGACAACACGCACCCACACAGACACAGAGGGAAGGGGUUGGGAUGGGGACAGGGUGCACAGCAGGGCGGGGUAGGACCCCAGCCCCU | 1.93
CACAGACAACACGCACCCACACAGACACAGAGGGAAGGGGUUGGGAUGGGGACAGGGUGCACAGCAGGGCGGGGUAGGACCCCUGCCCCU | 1.91
AGUCCUGUGCUACACAUCGUAUGUACCGAAUCGGCCCCCGGGCCCCCGGGCCCCCGGGAAAGUAUUAUGUUACGCCGUUCGGAUCUGCAC | -1.32

Other studies, line by line
Molecule | target | assay | test system | conditions | scale | endpoint | result
PhoQ, residues 284 288 289 292 302 303 TLMATV | PhoP, residues 12 14 15 18 19 GQALL (Escherichia coli, UniProt P23836) | Sort-seq, measured: YFP reporter | E. coli | PhoQ-PhoP variant library, together with: 10 µM Mg2+ | relative to: high Mg2+ state, higher = stronger signaling | fold induction | 23.1

Repeated from above (series 1):
Change | normalised enrichment score
RGAASQLFPPTEA [R4A] | 0.0491
AGARSQLFPPTEA [R1A] | 0.213
RGARSQAFPPTEA [L7A] | 0.126
RGARSQLFPPTAA [E12A] | 0.269
RGARSALFPPTEA [Q6A] | 0.532
